Measured values pooled from the literature.
Every numbered part comes from another study and shows a few of its results, in no order. Positions count from the first letter of the parent shown.

Set 1
Target: CCNB3, cyclin fold, Cln2 fusion (human)
Technique: yeast growth competition, sequencing
Matrix: yeast
Setting: strong parent motif
Baseline: not given
Reading: higher = stronger binding
Starting sequence: BRCA2 docking peptide (human); PSIKRNLLNEFDR
Variant | normalised enrichment score
PMIKRNLLNEFDR [S2M] | 1.18
PSISRNLLNEFDR [K4S] | 0.384
PSIKRNLLNAFDR [E10A] | 0.173
PKIKRNLLNEFDR [S2K] | 1.39
PEIKRNLLNEFDR [S2E] | 0.366
HSIKRNLLNEFDR [P1H] | 1.34
PSWKRNLLNEFDR [I3W] | 0.669
PSIKRNLLNEEDR [F11E] | 0.343
PSIKRNLLNEFDH [R13H] | 0.755
PSIKRNLLWEFDR [N9W] | 1.8
PSIKRNLANEFDR [L8A] | 0.434
PSIKRHLLNEFDR [N6H] | 0.287
PSIKRNRLNEFDR [L7R] | 0.116
PSIKTNLLNEFDR [R5T] | -0.649
PSIDRNLLNEFDR [K4D] | 0.169
PSSKRNLLNEFDR [I3S] | 0.571
PSIKRNALNEFDR [L7A] | -0.128
PFIKRNLLNEFDR [S2F] | 1.13
PSIKRNLCNEFDR [L8C] | 0.282
PSIKRNPLNEFDR [L7P] | -0.249
PSIKRNLLNEIDR [F11I] | 0.624
PSIKRNLLNETDR [F11T] | 0.227

Set 2
Target: RING finger protein unkempt homolog, zinc fingers 1-6, GST-SBP tag (UNK, Homo sapiens, UniProt Q9C0B0, residues 30-357)
Sequence of UniProt Q9C0B0 (30-357, looked up): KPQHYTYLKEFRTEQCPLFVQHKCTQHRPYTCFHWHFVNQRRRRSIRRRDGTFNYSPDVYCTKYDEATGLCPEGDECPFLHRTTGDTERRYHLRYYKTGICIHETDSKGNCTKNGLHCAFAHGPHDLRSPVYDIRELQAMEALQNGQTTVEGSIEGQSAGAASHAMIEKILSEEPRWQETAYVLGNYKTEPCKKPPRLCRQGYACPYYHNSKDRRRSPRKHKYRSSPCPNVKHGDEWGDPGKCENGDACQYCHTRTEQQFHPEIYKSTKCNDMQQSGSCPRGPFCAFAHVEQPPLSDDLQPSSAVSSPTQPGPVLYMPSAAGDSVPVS
Technique: RNA Bind-n-Seq
Molecule type: RNA
Matrix: in vitro
Tested at: not given
Setting: RNA with constant flanks, human and mouse sites, ends assumed
Baseline: input RNA pool
Reading: higher = stronger binding
Constant ends, left off below: GGGAGUUCUACAGUCCGACGAUC … CAACAGAGGAUUGAGCAUCA
Sequence | bound/input enrichment [ratio]
AGCAAUAUUCGUACAUUAUGUGAUUUAUGUUUUUGAUGUCAAAAGUUUGUGCUUUGGGUGAAAUAUUUGUAUAACUGCUGUUUUCUUCACUACUCCUGUACACAUUUCACCAUGUGGUCA | 0.44
UAUAGAAAUGCAUAUACAAUGGUUUUGCAUAAACAUGGAGAAAAGCUCUACACUGGACUAAGAGAAGUUGUUACUGAACAUCUCAUAAAUAAGGUGCGAGAAGAUGUACUAAAUUCAUUG | 0.128
UCUGACUGAAUGGAACAAGAUGGCUGGUGCUCUCAGGAGUUAACACCUCAGUGUGGUAGUAUUGAUUUGGUAAUUGUUAAAGAUGGGUUAUGUAGUUCGAUAAGCCAUUUCUUGCUGACG | 0.713
GGGGUCAGCAGCAGGAGAAGCGUGUUGAACACGUGGCUCUCAGACACUCCUUGUUUUUAACGGGAAGCUCUUUGCAUUUGCAUUUCCUCAACAAAGGAGCAAAGCAGAGGAAGCUGAGAG | 0.148
ACUAAAGACUGUGAUGAGAAUAAAGAAAACAAAACUCCAGAAGGAUCUCAGGGAGAAGUUGAUUGGCUCCAGCAGUAUGAUAUGGAGCGUGAAAGGGAAGAGCAAGAGCUUCAGCAGGCA | 0.343
AGGAAAGCUUACAAAUAUGCUUAUGAUCAAUACAGGGACCAAUACAACUGGUUCUUCCUUGCACGCCCCACUACUUUCGCUGUUAUUGAAAACCUCAAAUAUUUUUUGUUAAAAAAGGAU | 0.224
CUCCCUGAAGUGACGGAUGAGUAUAAGAAUGAUGUAAAAAACAGAUCUGUUUAUAUUAAAGGUUUCCCAACUGACGCCACCCUUGAUGAUAUAAAAGAAUGGCUAGACGAUAAAGGCCAA | 0.478
ACGAUCGGGGCCUAUAUCAACACAACGCACUCACGCCUCACACACAUCAGUCCUCGGCACUAUAGCGAGUUUAUCGAGUUCCUCAGCAAGGCCCGAGAGACCUUCCUAAUGGCACACGAU | 0.242

Set 3
Target: Ras GTPase-activating protein-binding protein 1, C-terminal RGG region (G3BP1, Homo sapiens, UniProt Q13283)
Sequence of UniProt Q13283 (whole entry, looked up): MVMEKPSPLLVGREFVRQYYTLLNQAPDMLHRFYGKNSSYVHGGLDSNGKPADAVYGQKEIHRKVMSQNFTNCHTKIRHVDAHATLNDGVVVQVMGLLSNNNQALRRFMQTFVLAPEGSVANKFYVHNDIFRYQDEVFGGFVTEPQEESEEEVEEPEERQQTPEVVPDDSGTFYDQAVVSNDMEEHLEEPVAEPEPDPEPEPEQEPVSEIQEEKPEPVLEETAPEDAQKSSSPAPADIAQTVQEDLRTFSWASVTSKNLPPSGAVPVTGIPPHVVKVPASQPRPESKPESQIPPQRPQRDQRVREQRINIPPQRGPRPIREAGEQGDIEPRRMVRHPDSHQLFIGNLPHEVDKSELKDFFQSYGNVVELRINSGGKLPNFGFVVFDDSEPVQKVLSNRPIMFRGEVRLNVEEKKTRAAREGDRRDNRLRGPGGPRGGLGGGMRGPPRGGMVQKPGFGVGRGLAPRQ
Technique: RNA Bind-n-Seq
Molecule type: RNA
Matrix: in vitro
Tested at: 1 µM
Setting: whole 134-nt RNA, ends assumed
Added: 150 mM KCl
Baseline: input library
Reading: higher = stronger binding
Constant ends, left off below: GGGAGUUCUACAGUCCGACGAUC … UGGAAUUCUCGGGUGUCAAGG
Sequence | log2 enrichment
AAGUCCUGUGCUACACAUCGUAUGUACCGAAUCGGAAAAAAAGGUUUGGUUUUUGGAAAGUAUUAUGUUACGCCGUUCGGAUCUGCACUU | -1.89
UUCCUCAAGUCCUGUGCUACACAUCGUAUGUACCGAAUCGGCGGCGGCGGGAAAGUAUUAUGUUACGCCGUUCGGAUCUGCACUUCCAGC | -0.578
ACCAUGCAAGUGGGCAUCUUUGGGAAGUGGGGCAAGGGGGGGAUAGGGAGGGGGGUAACACUUUGGGAACAGGUGGUCCCAGGUCGUUUC | -0.904
GUCCUGUGCUACACAUCGUAUGUACCGAAUCGUGUGUGUGUGUGUGUGUGUGUGUGUGAAAGUAUUAUGUUACGCCGUUCGGAUCUGCAC | 1.46
CUCAAGUCCUGUGCUACACAUCGUAUGUACCGAAUCGGGGAAGGAAGGAAGGGGAAAGUAUUAUGUUACGCCGUUCGGAUCUGCACUUCC | -1.18
CAAGUCCUGUGCUACACAUCGUAUGUACCGAAUCGGGAAAAGGAAAAGGAAAAGGGAAAGUAUUAUGUUACGCCGUUCGGAUCUGCACUU | -2.25
UGGGAGGUGGAUUUUGUUUAUUUUUUUAGCUCAUUUCCAGGGGUGGGAAUUUUUUUUUAAUAUGUGUCAUGAAUGAAGUUGUUUUUGAAA | 2.75
CACAGACAACACGCACCCACACAGACACAGAGGGAAGGGGUGGGGAUGGGGACAGGGUGCACAGCAGGGCGGGGUAGGACCCCAGCCCCU | 0.635
CCUGUGCUACACAUCGUAUGUACCGAAUCAAAUUUUUAAAUUUUUUUAAACCCCCCCAAAAAAGUAUUAUGUUACGCCGUUCGGAUCUGC | -0.798
UGGCCCUGGUGGCAUGCGGGGAAGAAGAGGUGGCCUCAUGGAUCGUGGUGGUCCCGGUGGAAUGUUCAGAGGUGGCCGUGGUGGAGACAG | 2.28
AUUAUAGACUUGAUCAAAACACAGGAAAAGGCAACUCCCAGGAACUUUCCGCCACGAUUCCAGGAUGGAUAUUACAGCUGACAGCUUUUC | -1.7
ACCAUGCGGGUGGGCAUCUUUGGGAAGUGGGGCAAGGGGGGGAUAGGGAGGGGGGUAACACUUUGGGAACAGGUGGUCCCAGGUCGUUUC | -1.28
UGGCCCUGGUGGCAUGCGGGGAGGAAAAGGUGGCCUCAUGGAUCGUGGUGGUCCCGGUGGAAUGUUCAGAGGUGGCCGUGGUGGAGACAG | 2.18

Single results of other studies
Substance | target | assay | test system | conditions | how to read | quantity | value
PhoQ, residues 284 288 289 292 302 303 SNGLAW | PhoP, residues 12 14 15 18 19 QYFSL (Escherichia coli, UniProt P23836) | Sort-seq, refers to: YFP reporter | E. coli | PhoQ-PhoP variant library, added: 10 µM Mg2+ | baseline: high Mg2+ state, higher = stronger signaling | fold induction | 11.4

Some of these lines once more (set 3):
Sequence | log2 enrichment
CCUGUGCUACACAUCGUAUGUACCGAAUCAAAUUUUUAAAUUUUUUUAAACCCCCCCAAAAAAGUAUUAUGUUACGCCGUUCGGAUCUGC | -0.798
UGGCCCUGGUGGCAUGCGGGGAAGAAGAGGUGGCCUCAUGGAUCGUGGUGGUCCCGGUGGAAUGUUCAGAGGUGGCCGUGGUGGAGACAG | 2.28
AUUAUAGACUUGAUCAAAACACAGGAAAAGGCAACUCCCAGGAACUUUCCGCCACGAUUCCAGGAUGGAUAUUACAGCUGACAGCUUUUC | -1.7
ACCAUGCGGGUGGGCAUCUUUGGGAAGUGGGGCAAGGGGGGGAUAGGGAGGGGGGUAACACUUUGGGAACAGGUGGUCCCAGGUCGUUUC | -1.28
